{"data": "Experimental data of several laboratories", "note": "Numbered parts are unrelated; each lists some results of a single study.", "sequence of UniProt Q08881 (whole entry, looked up)": "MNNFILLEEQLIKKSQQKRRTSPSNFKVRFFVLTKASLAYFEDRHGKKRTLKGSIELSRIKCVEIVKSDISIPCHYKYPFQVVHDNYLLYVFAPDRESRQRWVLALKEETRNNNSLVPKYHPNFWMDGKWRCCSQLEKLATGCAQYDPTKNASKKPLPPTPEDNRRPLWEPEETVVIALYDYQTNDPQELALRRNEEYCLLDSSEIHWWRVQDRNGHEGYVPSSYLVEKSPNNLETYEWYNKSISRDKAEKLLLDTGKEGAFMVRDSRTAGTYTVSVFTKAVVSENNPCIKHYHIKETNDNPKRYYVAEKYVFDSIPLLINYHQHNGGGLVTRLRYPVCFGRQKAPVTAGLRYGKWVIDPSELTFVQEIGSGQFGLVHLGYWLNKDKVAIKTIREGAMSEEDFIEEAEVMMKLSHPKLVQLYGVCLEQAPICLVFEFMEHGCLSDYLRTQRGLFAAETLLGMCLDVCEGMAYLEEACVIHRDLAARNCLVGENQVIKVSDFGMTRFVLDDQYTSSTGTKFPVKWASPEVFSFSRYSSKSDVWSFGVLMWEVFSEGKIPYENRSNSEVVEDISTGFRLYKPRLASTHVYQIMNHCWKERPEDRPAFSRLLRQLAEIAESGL", "sequence of UniProt O95747 (whole entry, looked up)": "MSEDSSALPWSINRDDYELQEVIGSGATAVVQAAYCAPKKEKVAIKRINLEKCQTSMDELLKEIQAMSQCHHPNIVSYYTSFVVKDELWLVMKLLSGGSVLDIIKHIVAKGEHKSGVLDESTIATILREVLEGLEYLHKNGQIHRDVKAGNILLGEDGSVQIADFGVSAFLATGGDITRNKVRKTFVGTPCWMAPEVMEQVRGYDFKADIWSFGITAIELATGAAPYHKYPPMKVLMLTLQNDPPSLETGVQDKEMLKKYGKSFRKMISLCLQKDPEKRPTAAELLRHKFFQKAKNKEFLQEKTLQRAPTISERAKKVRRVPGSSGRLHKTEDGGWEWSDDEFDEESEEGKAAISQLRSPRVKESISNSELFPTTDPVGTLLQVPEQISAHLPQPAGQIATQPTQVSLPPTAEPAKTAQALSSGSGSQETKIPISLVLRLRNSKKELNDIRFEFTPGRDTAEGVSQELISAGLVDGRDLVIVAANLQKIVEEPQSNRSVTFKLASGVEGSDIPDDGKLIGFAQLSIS", "sequence of UniProt Q9UL54 (whole entry, looked up)": "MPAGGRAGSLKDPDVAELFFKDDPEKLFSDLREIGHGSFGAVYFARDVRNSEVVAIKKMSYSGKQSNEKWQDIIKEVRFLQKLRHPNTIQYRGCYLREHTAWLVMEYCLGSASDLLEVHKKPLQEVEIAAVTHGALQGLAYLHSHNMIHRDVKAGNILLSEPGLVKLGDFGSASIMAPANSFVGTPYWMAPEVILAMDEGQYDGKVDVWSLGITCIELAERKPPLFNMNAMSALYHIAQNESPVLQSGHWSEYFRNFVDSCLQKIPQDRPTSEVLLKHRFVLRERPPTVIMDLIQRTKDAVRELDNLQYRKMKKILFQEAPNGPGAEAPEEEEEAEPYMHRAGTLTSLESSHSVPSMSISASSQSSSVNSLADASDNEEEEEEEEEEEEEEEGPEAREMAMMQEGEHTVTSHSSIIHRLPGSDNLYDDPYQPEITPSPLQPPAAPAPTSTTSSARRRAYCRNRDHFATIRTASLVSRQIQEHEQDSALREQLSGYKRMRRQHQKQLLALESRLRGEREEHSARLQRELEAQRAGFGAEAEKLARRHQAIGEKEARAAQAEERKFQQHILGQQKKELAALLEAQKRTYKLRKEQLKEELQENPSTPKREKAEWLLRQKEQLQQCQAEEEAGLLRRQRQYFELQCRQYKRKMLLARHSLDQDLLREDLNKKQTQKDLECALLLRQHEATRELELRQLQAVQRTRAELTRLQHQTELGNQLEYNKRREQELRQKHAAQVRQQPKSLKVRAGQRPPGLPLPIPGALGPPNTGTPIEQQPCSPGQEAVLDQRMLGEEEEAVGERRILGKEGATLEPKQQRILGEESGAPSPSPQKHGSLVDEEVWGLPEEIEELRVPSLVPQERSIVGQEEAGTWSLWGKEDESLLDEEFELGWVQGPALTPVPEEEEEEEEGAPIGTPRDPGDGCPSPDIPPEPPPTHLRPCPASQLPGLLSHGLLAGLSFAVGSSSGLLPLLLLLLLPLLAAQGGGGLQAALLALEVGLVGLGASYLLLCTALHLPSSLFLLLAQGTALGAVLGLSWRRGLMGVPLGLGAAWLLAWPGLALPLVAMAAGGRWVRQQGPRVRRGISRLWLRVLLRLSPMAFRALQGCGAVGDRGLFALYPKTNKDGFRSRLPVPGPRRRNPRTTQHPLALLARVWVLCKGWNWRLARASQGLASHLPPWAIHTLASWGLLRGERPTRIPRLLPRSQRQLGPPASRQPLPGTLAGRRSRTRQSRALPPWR", "sequence of UniProt P22607 (whole entry, unmodified, looked up)": "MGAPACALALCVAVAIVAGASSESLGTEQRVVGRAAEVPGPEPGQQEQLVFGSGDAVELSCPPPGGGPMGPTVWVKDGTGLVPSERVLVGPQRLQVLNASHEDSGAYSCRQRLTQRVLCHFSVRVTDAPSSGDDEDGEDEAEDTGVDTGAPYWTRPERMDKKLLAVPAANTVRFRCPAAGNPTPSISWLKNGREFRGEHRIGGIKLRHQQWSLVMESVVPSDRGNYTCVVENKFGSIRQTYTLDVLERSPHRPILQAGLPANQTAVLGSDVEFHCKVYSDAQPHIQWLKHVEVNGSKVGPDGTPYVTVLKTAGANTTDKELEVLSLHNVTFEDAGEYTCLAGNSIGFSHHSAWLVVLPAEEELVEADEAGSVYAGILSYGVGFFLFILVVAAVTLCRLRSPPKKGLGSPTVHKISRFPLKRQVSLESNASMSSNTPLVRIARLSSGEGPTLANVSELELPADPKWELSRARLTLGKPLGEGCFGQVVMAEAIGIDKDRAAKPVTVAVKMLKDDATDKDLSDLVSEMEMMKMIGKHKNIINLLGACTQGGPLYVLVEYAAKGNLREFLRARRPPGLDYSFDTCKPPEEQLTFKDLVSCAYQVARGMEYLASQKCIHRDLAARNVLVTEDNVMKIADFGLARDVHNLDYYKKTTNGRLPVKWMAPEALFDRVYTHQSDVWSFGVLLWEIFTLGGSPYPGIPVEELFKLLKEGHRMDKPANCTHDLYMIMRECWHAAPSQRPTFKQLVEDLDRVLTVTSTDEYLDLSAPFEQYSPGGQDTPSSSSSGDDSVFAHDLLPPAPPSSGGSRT", "sequence of UniProt P37173 (whole entry, looked up)": "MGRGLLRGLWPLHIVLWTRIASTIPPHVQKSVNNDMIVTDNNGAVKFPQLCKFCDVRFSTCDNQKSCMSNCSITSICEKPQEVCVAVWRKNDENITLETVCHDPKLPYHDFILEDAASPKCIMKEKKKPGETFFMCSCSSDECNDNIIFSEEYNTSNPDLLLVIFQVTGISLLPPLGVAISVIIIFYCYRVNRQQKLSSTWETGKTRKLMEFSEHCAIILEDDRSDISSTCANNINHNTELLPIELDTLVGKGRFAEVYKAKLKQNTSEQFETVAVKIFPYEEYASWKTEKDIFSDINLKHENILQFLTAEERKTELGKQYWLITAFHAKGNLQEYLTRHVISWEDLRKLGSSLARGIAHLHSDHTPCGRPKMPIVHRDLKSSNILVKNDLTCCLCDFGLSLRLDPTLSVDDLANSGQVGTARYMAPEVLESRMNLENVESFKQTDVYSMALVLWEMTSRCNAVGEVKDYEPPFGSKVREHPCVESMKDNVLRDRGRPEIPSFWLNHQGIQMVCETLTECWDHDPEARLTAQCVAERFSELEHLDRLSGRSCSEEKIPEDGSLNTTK", "sequence of UniProt P30530 (whole entry, looked up)": "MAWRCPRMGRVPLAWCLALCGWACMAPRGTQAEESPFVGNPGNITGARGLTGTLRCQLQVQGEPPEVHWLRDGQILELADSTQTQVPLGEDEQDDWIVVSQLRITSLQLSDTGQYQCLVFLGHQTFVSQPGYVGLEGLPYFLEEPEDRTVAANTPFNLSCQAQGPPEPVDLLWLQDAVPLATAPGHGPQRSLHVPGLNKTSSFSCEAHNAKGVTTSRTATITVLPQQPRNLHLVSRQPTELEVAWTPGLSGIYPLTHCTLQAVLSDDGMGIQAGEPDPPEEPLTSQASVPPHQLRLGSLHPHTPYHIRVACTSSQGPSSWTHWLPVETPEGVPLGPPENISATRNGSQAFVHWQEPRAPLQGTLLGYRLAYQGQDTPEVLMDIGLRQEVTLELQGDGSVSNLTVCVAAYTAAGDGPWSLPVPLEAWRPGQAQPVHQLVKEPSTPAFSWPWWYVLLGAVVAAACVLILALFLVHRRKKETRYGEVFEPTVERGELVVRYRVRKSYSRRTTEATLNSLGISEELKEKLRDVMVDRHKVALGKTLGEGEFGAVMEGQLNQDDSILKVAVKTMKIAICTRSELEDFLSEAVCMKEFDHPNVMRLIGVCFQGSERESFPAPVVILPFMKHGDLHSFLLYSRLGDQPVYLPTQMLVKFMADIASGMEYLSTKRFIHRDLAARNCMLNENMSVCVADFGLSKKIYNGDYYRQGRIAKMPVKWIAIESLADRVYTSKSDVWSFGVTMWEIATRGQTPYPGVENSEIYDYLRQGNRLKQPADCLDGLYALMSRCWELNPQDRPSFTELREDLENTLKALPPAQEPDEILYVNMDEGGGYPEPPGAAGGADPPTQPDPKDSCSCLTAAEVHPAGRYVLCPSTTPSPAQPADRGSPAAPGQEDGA", "sequence of UniProt P53778 (whole entry, looked up)": "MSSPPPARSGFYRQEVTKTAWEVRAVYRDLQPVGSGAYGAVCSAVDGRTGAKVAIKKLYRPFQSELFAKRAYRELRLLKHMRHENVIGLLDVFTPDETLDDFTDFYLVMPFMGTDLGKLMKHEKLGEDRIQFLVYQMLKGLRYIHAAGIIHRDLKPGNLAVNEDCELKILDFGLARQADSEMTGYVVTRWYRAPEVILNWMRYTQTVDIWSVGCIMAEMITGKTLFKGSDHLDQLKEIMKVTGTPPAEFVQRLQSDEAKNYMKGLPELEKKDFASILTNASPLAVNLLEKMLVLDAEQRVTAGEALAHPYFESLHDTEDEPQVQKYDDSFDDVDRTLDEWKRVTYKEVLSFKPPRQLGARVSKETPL"}
{"data": "Set 1", "SMILES": "FC(F)(F)c1ccc2c(c1)nc(-c1cccnc1)n2C1CC1", "read-out": "cell-free assay", "method": "competition with immobilised ligand", "tested at": "1 µM"}
{"target": "TAOK2 (Homo sapiens, UniProt Q9UL54)", "remaining binding [%]": 99}
{"target": "MARK3 (Homo sapiens, UniProt P27448)", "remaining binding [%]": 100}
{"target": "FGFR3 (Homo sapiens, UniProt P22607, G697C)", "remaining binding [%]": 100}
{"target": "Ribosomal protein S6 kinase alpha-1, C-terminal kinase domain (RPS6KA1, Homo sapiens, UniProt Q15418)", "remaining binding [%]": 100}
{"target": "MAPK13 (Homo sapiens, UniProt O15264)", "remaining binding [%]": 100}
{"target": "OXSR1 (Homo sapiens, UniProt O95747)", "remaining binding [%]": 100}
{"target": "TGFBR2 (Homo sapiens, UniProt P37173)", "remaining binding [%]": 100}
{"target": "GRK4 (Homo sapiens, UniProt P32298)", "remaining binding [%]": 100}
{"target": "MAPK10 (Homo sapiens, UniProt P53779)", "remaining binding [%]": 100}
{"target": "TIE1 (Homo sapiens, UniProt P35590)", "remaining binding [%]": 100}
{"target": "LCK (Homo sapiens, UniProt P06239)", "remaining binding [%]": 100}
{"target": "AXL (Homo sapiens, UniProt P30530)", "remaining binding [%]": 100}
{"target": "ITK (Homo sapiens, UniProt Q08881)", "remaining binding [%]": 100}
{"target": "Ribosomal protein S6 kinase alpha-5, N-terminal kinase domain (RPS6KA5, Homo sapiens, UniProt O75582)", "remaining binding [%]": 100}
{"target": "MAPK12 (Homo sapiens, UniProt P53778)", "remaining binding [%]": 100}
{"target": "TBK1 (Homo sapiens, UniProt Q9UHD2)", "remaining binding [%]": 82}
{"target": "CSK (Homo sapiens, UniProt P41240)", "remaining binding [%]": 100}
{"data": "Set 2", "target": "Phosphorylase b kinase gamma catalytic chain, liver/testis isoform (PHKG2, Homo sapiens, UniProt P15735)", "read-out": "enzyme activity", "action": "inhibitor", "tested at": "0.5 µM", "baseline": "control", "Residues (P15735 1-406)": "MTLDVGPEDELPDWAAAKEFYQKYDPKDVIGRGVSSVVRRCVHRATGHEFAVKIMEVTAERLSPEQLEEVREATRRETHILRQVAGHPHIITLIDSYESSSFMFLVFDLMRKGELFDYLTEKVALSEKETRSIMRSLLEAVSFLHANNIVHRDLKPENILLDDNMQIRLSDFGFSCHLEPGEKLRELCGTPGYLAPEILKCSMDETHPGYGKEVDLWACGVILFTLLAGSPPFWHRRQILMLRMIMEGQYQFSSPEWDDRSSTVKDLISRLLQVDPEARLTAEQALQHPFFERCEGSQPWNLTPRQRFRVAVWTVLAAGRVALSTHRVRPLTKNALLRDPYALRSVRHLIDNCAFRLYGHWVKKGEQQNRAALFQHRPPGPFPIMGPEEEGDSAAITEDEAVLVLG"}
{"SMILES": "CCN(CC)CCNC(=O)c1c(C)[nH]c(/C=C2\\C(=O)Nc3ccc(F)cc32)c1C", "remaining activity [%]": 20.6}
{"SMILES": "COc1cc2ncnc(Nc3cccc(Cl)c3)c2cc1OC", "remaining activity [%]": 92.6}
{"SMILES": "Nc1cccc(-c2cc3c(Oc4cccc(O)c4)ncnc3[nH]2)c1", "remaining activity [%]": 109}
{"SMILES": "CN([C@@H](Cc1ccc(OS(=O)(=O)c2cccc3cnccc23)cc1)C(=O)N1CCN(c2ccccc2)CC1)S(=O)(=O)c1cccc2cnccc12", "remaining activity [%]": 101}
{"SMILES": "Cc1cc2ncc(-c3ccccc3)nc2cc1C", "remaining activity [%]": 83.9}
{"SMILES": "COc1cc2c(cc1OC)-c1[nH]nc(Nc3cccc(F)c3)c1C2", "remaining activity [%]": 121}
{"SMILES": "CCOc1nc(NC(=O)Cc2cc(OC)ccc2OC)cc(N)c1C#N", "remaining activity [%]": 100}
{"SMILES": "Cc1cn(-c2cc(NC(=O)c3ccc(C)c(Nc4nccc(-c5cccnc5)n4)c3)cc(C(F)(F)F)c2)cn1", "remaining activity [%]": 97.9}
{"SMILES": "c1ccc(-c2[nH]ncc2-c2ccnc3ccccc23)nc1", "remaining activity [%]": 97.7}
{"SMILES": "N#Cc1c(NC(=O)c2cccc3ccccc23)sc2c1CCCC2", "remaining activity [%]": 101}
{"SMILES": "O=c1cc(-c2cccc3c2Sc2ccccc2S3)oc(N2CCOCC2)c1", "remaining activity [%]": 98.6}
{"SMILES": "O=C1C(Cl)=C(N2C(=O)CCC2=O)C(=O)c2ccccc21", "remaining activity [%]": 100}
{"data": "Set 3", "target": "Interferon regulatory factor 7, full length, phosphomimetic (IRF7, Homo sapiens, UniProt Q92985, residues 1-503, S101K/S471D/S472D/S475D/S476D/S477D/S483D/S484D/S487D)", "method": "protein-binding microarray", "molecule type": "double-stranded DNA, one strand shown", "matrix": "in vitro", "tested at": "250 nM", "notes": "60-bp whole probe", "together with": "salmon DNA 0.4 mg/ml", "baseline": "random background probes", "direction": "higher = stronger binding", "constant ends, left off below": "GCCTAGCAC … GTCTTGATTCGCTTGACGCTGCTG", "Residues (chain)": "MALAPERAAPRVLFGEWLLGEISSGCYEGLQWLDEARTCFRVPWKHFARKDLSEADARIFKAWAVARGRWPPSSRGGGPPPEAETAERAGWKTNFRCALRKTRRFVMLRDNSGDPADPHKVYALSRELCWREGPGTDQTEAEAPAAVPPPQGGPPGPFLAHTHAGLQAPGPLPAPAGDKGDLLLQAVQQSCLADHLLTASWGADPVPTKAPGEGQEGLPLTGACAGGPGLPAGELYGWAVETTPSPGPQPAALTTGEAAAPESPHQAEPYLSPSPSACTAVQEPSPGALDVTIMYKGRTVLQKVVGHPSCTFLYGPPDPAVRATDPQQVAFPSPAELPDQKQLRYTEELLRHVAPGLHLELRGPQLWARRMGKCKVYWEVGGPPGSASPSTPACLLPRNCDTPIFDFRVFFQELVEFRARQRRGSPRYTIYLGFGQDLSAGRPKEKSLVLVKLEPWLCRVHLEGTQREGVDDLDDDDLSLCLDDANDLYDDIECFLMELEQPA"}
{"Oligonucleotide": "GACGAACTTGGGACTGGAGACGTGCTA", "log fluorescence": "-0.195 z-score"}
{"Oligonucleotide": "TTAGGTATCGACTATCGGATAGTGCTA", "log fluorescence": "0.303 z-score"}
{"Oligonucleotide": "TTAGGTCTCGATATCGGTTAGTGCTAG", "log fluorescence": "3.45 z-score"}
{"Oligonucleotide": "TTAGAACTGAGGCTCGATTAGTGCTAG", "log fluorescence": "0.431 z-score"}
{"Oligonucleotide": "ACCGCATTCGAATTCAGAATGTGCTAG", "log fluorescence": "1.3 z-score"}
{"Oligonucleotide": "GACGGTATTGGTATCGGGACGTGCTAG", "log fluorescence": "-0.0896 z-score"}
{"Oligonucleotide": "GACGGTTTCGGGTATCGAGACGTGCTA", "log fluorescence": "7.32 z-score"}
{"Oligonucleotide": "GACGGACTGGGGTATAGGGACGTGCTA", "log fluorescence": "-0.191 z-score"}
{"data": "Set 4", "target": "Prothrombin, mature alpha-thrombin (F2, Homo sapiens, UniProt P00734)", "method": "aptamer microarray, sandwich", "molecule type": "DNA with 2'F-ANA", "matrix": "in vitro", "tested at": "200 nM", "notes": "whole 15-mer aptamer, many near background", "together with": "Cy3 exosite-II aptamer, 400 nM", "direction": "higher = stronger binding", "oligonucleotide": "GGTTGGTGTGGTTGG"}
{"Modification": "2'F-ANA at 1 2 3 4 5 8 10 12 15", "mean fluorescence intensity [a.u.]": 49}
{"Modification": "2'F-ANA at 2 3 5 7 10 12 14", "mean fluorescence intensity [a.u.]": 75.8}
{"Modification": "2'F-ANA at 2 3 6 9 10 11 12 13", "mean fluorescence intensity [a.u.]": 325}
{"Modification": "2'F-ANA at 1 2 4 5 8 9 10", "mean fluorescence intensity [a.u.]": 45.8}
{"Modification": "2'F-ANA at 1 2 3 8 9 12 14", "mean fluorescence intensity [a.u.]": 96.2}
{"Modification": "2'F-ANA at 4 7 10 14 15", "mean fluorescence intensity [a.u.]": 59.3}
{"Modification": "2'F-ANA at 1 2 3 4 5 7 8 12 15", "mean fluorescence intensity [a.u.]": 130}
{"Modification": "2'F-ANA at 1 2 3 4 13 15", "mean fluorescence intensity [a.u.]": 141}
{"note": "For quick reference, copied from above (set 1):"}
{"target": "MAPK10 (Homo sapiens, UniProt P53779)", "remaining binding [%]": 100}
{"target": "FGFR3 (Homo sapiens, UniProt P22607, G697C)", "remaining binding [%]": 100}
{"target": "OXSR1 (Homo sapiens, UniProt O95747)", "remaining binding [%]": 100}
{"target": "AXL (Homo sapiens, UniProt P30530)", "remaining binding [%]": 100}
